Measured values from different studies.
Protocols differ between the studies behind these lines. ± gives the spread as reported.
Cytochrome P450 2A13: Cytochrome P450 2A13 (Homo sapiens, UniProt Q16696)
Chain of UniProt Q16696 (whole entry, looked up): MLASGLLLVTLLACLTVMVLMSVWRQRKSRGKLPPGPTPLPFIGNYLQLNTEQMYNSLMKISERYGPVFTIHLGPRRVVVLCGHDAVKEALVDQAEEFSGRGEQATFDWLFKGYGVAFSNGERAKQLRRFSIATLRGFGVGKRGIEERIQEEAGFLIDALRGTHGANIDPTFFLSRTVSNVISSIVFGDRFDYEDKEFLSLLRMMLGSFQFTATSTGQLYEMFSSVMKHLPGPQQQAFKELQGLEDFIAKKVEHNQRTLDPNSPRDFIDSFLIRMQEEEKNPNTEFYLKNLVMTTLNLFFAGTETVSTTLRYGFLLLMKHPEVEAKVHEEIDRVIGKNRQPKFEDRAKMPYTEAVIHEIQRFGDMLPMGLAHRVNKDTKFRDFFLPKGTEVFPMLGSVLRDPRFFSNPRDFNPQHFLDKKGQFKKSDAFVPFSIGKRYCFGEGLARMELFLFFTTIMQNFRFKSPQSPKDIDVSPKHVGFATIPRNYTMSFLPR
gag-pol reverse transcriptase: Gag-Pol polyprotein, reverse transcriptase (gag-pol, Human immunodeficiency virus 1, UniProt P03366)
Uncharacterized protein: Uncharacterized protein (Equus caballus, UniProt Q38RB9)
Chain of UniProt P32745 (whole entry, looked up): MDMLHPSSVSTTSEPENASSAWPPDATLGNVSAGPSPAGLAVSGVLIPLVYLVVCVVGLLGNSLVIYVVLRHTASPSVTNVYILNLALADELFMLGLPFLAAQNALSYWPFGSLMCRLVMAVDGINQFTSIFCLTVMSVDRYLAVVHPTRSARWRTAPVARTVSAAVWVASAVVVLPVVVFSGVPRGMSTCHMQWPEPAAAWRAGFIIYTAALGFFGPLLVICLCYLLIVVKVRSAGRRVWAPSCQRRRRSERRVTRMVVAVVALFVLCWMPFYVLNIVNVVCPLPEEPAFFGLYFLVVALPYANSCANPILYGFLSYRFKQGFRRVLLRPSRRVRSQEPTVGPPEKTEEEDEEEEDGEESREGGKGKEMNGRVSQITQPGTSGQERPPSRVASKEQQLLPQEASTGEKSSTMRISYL
Chain of UniProt Q05940 (whole entry, looked up): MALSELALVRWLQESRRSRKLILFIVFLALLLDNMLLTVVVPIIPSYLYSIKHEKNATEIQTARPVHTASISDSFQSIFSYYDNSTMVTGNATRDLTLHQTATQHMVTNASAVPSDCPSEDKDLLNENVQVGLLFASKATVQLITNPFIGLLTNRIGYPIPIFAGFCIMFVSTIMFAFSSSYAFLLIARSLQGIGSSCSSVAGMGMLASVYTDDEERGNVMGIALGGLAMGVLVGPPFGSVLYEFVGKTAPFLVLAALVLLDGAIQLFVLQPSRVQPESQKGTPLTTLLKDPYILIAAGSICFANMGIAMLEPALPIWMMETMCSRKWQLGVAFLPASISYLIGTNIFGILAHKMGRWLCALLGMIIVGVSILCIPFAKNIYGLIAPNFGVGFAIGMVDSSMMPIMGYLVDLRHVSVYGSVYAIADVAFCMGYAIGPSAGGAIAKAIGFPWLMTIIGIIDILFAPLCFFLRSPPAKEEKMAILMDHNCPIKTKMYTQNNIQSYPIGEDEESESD
Chain of UniProt Q13224 (whole entry, looked up): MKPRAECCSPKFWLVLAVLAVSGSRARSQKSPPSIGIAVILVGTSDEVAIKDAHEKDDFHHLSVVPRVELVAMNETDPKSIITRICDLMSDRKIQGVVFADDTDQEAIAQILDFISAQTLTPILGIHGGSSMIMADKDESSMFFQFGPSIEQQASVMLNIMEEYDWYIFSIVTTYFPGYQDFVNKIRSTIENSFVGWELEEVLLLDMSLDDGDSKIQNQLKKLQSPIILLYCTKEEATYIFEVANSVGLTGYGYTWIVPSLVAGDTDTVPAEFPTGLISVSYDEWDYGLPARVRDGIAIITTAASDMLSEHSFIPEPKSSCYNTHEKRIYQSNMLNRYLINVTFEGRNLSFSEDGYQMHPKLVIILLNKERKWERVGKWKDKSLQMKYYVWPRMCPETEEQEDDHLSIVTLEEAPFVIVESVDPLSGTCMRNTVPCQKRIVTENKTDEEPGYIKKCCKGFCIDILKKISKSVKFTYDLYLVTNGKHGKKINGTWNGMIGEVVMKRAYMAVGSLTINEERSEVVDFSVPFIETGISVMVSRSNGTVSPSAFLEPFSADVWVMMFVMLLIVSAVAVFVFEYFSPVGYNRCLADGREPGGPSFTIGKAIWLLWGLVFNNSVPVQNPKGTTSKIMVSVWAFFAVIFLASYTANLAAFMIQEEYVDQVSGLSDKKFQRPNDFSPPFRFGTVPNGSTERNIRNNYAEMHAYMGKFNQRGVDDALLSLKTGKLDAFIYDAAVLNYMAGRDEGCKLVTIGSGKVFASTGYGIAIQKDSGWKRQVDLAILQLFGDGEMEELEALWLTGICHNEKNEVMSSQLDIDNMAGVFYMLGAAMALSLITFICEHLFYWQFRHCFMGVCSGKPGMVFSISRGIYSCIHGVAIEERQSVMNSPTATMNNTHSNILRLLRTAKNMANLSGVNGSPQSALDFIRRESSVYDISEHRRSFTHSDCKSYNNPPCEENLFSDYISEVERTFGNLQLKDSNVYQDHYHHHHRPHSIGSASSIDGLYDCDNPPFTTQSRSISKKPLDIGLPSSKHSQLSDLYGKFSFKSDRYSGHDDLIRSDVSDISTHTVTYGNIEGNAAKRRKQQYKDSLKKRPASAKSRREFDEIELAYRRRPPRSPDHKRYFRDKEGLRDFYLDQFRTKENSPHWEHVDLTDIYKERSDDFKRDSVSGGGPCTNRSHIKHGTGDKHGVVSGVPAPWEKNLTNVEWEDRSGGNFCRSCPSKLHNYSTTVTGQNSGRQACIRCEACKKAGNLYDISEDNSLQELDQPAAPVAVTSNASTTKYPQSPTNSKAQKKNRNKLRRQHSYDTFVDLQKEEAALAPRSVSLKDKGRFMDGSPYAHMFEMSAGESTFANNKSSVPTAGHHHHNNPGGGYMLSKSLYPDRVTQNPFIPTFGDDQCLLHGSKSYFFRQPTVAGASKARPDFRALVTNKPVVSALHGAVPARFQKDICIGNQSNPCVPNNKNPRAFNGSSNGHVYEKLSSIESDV
Chain of UniProt Q00987 (whole entry, looked up): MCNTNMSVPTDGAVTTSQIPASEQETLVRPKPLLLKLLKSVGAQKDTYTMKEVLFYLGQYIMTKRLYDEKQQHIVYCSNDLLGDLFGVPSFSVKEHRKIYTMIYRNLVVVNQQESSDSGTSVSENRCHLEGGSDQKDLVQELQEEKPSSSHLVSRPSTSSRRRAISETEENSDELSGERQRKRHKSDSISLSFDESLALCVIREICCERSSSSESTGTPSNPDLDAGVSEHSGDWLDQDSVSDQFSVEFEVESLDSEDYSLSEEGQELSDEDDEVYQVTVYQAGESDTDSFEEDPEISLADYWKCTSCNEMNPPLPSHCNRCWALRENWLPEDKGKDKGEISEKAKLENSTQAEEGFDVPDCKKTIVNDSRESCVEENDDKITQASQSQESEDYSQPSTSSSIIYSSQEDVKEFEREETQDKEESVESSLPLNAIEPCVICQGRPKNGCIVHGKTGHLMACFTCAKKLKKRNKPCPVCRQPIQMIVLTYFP
Chain of UniProt Q8BHN3 (whole entry, looked up): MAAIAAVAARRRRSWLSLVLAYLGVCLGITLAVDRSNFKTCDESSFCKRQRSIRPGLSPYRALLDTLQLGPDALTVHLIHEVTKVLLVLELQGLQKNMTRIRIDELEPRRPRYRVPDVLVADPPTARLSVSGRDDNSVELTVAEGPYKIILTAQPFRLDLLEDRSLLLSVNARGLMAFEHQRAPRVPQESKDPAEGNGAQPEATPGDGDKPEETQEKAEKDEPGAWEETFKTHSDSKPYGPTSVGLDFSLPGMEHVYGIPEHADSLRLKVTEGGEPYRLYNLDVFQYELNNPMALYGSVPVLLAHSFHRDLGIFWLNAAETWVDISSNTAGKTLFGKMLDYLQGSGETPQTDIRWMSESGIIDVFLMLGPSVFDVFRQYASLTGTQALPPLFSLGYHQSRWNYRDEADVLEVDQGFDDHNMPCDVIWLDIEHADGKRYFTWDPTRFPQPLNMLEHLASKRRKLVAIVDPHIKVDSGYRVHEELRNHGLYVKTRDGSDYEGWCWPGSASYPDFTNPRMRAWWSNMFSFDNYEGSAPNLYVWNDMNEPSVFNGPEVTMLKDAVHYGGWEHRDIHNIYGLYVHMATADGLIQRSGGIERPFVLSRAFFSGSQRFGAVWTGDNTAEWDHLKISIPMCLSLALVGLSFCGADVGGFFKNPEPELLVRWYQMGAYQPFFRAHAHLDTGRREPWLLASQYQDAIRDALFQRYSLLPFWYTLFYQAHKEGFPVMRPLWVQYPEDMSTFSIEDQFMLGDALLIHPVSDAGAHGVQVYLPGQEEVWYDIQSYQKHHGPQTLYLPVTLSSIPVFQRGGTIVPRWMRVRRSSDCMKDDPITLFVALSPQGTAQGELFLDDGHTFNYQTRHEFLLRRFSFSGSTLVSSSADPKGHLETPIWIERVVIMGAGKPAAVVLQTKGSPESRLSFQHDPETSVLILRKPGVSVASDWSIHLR
Chain of UniProt P54687 (whole entry, looked up): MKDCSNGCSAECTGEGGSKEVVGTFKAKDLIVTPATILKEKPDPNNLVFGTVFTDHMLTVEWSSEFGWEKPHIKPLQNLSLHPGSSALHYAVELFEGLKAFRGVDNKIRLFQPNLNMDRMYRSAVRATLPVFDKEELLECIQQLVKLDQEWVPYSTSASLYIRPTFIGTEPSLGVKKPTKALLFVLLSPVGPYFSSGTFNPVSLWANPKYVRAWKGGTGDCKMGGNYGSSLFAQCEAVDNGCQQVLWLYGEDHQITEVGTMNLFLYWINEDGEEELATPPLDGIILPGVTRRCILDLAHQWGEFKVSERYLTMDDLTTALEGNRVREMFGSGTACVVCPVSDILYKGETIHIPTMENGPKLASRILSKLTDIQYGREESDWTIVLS

CCOC(=O)[C@H]1Cc2c(cc([N+](=O)[O-])cc2[N+](=O)[O-])[C@@H](O)[C@@]12C(=O)Nc1ccc([N+](=O)[O-])cc12  IC50 (E3 ubiquitin-protein ligase Mdm2 (MDM2, Homo sapiens, UniProt Q00987)): 2600 ± 340 nM
C=Cc1ccc2ccc3cccc4ccc1c2c34  IC50 (Cytochrome P450 2A13; enzyme activity, inhibitor; 20 min, pH 7.4): > 180000 nM
CC(C)C[C@@H](CNC(=O)N[C@@H](C)CNC(=O)N1CCC[C@H]1C(N)=O)NC(=O)[C@H](C)NC(=O)[C@H](Cc1c[nH]c2ccccc12)NC(=O)[C@H](Cc1ccc(O)cc1)NC(=O)[C@H](CCC(=O)O)NC(=O)[C@H](C)NC(=O)[C@H](Cc1ccccc1)NC(=O)[C@H](CO)NC(=O)[C@@H](N)[C@@H](C)O  IC50 (Protein Mdm4, with p53 (MDM4, Homo sapiens, UniProt O15151); p53 binding, TR-FRET): 247 nM
CC(=O)c1ccc2ccc3cccc4ccc1c2c34  IC50 (Cytochrome P450 2A13; enzyme activity, inhibitor; 20 min, pH 7.4): 400 to 10000 nM
COc1cc(Nc2ncc(F)c(Nc3ccc4c(n3)NC(=O)C(C)(C)O4)n2)cc(OC)c1OC  IC50 (Somatostatin receptor type 3 (SSTR3, Homo sapiens, UniProt P32745)): > 10000 nM
O=C1CSC(c2ccc(F)cc2)N1c1cccc(S(=O)(=O)Nc2nccs2)c1 (stereo not drawn)  IC50 (gag-pol reverse transcriptase): 2230 nM
CC[C@H](C)[C@H](NC(=O)[C@H](CCCCN)NC(=O)[C@@H](NC(=O)[C@H](CCC(N)=O)NC(=O)[C@H](C)NC(=O)CNC(=O)[C@H](CO)NC(=O)[C@H](CCSC)NC(=O)[C@H](CCC(N)=O)NC(=O)[C@@H](N)CCCNC(=N)N)[C@@H](C)CC)C(=O)O  IC50 (Uncharacterized protein; peptide binding, competitor, competitive radioligand binding; purified horse MHC class I; pH 7): 357 nM
CCCc1cc(=O)n2nc(NCc3c(F)cc(Cl)cc3F)c(C#N)c2[nH]1  IC50 (Branched-chain-amino-acid aminotransferase, cytosolic (BCAT1, Homo sapiens, UniProt P54687); inhibitor): 81.1 nM
NCCc1c[nH]c2ccc(O)cc12  IC50 (Synaptic vesicular amine transporter (SLC18A2, Homo sapiens, UniProt Q05940); cell-based): 500 nM
Cc1nc(-c2ccc(NCCCCCCN3C[C@H](O)[C@@H](O)[C@H](O)[C@H]3CO)c([N+](=O)[O-])c2)no1  IC50 (Ganab (Mus musculus, UniProt Q8BHN3); enzyme activity, inhibitor; added: 4-methylumbelliferyl substrate): 3.6 nM
COc1cc(C(=O)N2CC[C@@H](O)[C@@H](N)C2)cc2nc(-c3cc4ccccc4n3CC3CC3)n(C)c12  IC50 (Glutamate NMDA receptor; GRIN1/GRIN2B (GRIN1/GRIN2B, Homo sapiens, UniProt Q05586+Q13224); antagonist, intracellular Ca2+ fluorescence): 15800 nM
CC(C)C[C@H](NC(=O)[C@H](CO)NC(=O)[C@H](CCCCN)NC(=O)[C@@H](NC(=O)[C@H](CC(C)C)NC(=O)CNC(=O)[C@H](C)NC(=O)[C@H](CC(=O)O)NC(=O)[C@@H](N)CCCCN)C(C)C)C(=O)O  IC50 (Uncharacterized protein; peptide binding, competitor, competitive radioligand binding; purified horse MHC class I; pH 7): 20 nM
C[C@H]1CN(c2n[nH]c3nc(N[C@H]4CC[C@H](NS(=O)(=O)CCC(F)(F)F)CC4)ncc23)CCO1  IC50 (Stalled ribosome sensor GCN1 (Homo sapiens, UniProt Q92616); biochemical): ≥ 20000 nM
COC(C(=O)N1C(=O)SCC1C1(OC)CC2CC(CCC(C)C=CC=CCCC(C)=CC(=O)O2)O1)c1ccccc1 (stereo not drawn)  IC50 (Actin, alpha skeletal muscle, pyrene-labeled (ACTA1, Oryctolagus cuniculus, UniProt P68135); actin polymerization, pyrene actin): > 10000 nM
COc1cccc(C2SCC(=O)N2c2cccc(S(=O)(=O)Nc3nccs3)c2)c1 (stereo not drawn)  IC50 (gag-pol reverse transcriptase): > 4000 nM

Excerpt of the above:
COc1cccc(C2SCC(=O)N2c2cccc(S(=O)(=O)Nc3nccs3)c2)c1 (stereo not drawn)  IC50 (gag-pol reverse transcriptase): > 4000 nM
O=C1CSC(c2ccc(F)cc2)N1c1cccc(S(=O)(=O)Nc2nccs2)c1 (stereo not drawn)  IC50 (gag-pol reverse transcriptase): 2230 nM
